Measurements gathered from unrelated publications.
Each numbered part is a random draw from the data of one study; scales do not carry over between parts.
Chain of UniProt O75716 (whole entry, looked up): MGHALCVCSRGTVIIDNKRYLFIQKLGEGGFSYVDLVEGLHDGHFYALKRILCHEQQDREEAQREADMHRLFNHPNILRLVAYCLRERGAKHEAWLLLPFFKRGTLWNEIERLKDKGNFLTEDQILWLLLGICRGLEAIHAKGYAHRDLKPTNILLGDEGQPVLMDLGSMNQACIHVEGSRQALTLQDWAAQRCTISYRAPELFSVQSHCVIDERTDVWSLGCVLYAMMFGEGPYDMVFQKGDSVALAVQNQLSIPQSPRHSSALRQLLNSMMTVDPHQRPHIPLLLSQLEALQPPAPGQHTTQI
Chain of UniProt P51812 (whole entry, looked up): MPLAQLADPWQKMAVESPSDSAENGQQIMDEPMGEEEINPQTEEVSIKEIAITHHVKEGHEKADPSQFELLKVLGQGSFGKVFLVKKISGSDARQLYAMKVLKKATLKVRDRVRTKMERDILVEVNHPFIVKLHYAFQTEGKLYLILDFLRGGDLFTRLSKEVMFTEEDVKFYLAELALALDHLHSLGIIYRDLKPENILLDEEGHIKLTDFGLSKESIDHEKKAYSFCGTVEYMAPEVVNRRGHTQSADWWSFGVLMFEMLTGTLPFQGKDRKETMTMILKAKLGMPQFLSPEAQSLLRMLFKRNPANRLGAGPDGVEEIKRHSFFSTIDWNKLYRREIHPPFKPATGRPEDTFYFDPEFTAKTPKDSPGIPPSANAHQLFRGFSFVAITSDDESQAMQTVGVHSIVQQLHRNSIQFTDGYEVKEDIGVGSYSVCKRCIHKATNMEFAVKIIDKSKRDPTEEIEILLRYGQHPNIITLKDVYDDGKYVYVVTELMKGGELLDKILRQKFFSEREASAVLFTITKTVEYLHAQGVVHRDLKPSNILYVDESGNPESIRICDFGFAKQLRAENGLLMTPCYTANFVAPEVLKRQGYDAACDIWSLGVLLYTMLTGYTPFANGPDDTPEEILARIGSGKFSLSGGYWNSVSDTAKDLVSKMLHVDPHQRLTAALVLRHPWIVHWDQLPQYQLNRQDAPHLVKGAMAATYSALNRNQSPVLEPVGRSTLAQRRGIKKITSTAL
Chain of UniProt Q15208 (whole entry, looked up): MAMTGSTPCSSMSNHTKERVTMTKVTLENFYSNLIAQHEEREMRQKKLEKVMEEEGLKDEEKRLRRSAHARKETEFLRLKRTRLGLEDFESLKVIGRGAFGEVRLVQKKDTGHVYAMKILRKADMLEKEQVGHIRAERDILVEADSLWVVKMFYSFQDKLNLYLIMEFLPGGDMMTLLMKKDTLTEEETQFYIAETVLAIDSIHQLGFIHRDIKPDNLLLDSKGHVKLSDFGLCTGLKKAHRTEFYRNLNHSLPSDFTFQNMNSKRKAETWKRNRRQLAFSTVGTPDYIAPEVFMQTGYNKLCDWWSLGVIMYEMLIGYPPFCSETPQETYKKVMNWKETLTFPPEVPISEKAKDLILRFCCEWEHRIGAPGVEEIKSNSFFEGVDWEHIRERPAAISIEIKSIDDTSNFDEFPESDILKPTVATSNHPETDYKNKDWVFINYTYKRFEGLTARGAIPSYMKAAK
Chain of UniProt Q15349 (whole entry, looked up): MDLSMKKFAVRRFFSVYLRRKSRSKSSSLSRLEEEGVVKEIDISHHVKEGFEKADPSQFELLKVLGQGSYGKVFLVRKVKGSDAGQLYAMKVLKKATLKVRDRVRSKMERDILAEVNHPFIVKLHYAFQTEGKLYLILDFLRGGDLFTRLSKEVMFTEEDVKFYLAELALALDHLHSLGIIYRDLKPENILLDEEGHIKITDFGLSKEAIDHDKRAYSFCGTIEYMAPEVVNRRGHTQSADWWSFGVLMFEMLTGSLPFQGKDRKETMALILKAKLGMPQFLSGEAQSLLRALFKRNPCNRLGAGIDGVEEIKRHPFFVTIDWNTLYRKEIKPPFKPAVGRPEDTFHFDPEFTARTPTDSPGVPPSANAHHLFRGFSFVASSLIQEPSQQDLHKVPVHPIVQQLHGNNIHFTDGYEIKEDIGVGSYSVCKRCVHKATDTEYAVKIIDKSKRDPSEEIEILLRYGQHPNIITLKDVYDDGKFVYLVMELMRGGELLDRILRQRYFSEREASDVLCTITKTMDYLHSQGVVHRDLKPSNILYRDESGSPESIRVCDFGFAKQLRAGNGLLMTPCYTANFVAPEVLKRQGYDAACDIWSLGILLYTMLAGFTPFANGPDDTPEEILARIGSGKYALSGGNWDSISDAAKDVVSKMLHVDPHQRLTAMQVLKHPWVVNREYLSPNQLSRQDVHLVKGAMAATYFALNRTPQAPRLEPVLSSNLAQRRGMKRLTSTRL
Chain of UniProt P29322 (whole entry, looked up): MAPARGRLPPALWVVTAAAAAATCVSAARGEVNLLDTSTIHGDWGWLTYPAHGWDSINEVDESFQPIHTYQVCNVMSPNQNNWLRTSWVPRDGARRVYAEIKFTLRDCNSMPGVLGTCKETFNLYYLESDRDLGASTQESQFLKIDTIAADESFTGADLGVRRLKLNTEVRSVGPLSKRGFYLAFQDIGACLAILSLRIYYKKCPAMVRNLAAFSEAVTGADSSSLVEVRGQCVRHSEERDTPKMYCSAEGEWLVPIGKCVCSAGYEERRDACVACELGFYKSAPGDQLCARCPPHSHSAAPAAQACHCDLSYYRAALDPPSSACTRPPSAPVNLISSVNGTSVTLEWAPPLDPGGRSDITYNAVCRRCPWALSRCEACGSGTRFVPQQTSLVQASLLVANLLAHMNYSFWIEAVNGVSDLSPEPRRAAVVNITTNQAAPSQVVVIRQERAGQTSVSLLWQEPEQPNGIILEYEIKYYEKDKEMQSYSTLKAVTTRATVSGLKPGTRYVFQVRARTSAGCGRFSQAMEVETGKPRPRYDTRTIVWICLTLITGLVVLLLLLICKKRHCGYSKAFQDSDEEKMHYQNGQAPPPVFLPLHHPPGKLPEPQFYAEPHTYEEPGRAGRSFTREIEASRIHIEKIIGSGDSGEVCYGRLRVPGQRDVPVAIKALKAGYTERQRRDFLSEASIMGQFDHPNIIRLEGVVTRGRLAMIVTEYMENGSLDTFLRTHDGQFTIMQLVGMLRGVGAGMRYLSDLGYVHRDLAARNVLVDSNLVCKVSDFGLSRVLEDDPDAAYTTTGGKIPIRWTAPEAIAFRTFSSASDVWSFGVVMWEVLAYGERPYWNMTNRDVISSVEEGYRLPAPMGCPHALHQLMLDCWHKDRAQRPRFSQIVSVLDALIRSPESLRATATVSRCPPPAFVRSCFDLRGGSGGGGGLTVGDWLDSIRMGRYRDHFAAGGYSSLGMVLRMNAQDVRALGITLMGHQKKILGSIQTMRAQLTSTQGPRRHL
Chain of UniProt P50613 (whole entry, looked up): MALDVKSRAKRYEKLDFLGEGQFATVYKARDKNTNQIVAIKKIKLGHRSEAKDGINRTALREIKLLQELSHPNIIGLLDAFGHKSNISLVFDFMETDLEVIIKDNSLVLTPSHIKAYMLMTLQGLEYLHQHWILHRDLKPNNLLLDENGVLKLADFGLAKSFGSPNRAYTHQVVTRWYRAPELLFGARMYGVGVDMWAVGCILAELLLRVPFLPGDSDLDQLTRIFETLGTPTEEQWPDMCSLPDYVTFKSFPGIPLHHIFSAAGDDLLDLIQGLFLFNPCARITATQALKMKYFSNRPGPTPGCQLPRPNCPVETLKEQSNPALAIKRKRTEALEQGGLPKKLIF

Sample 1 — read-out: enzyme activity; action: inhibitor; concentration: 0.5 µM; relative to: control
Target: BDNF/NT-3 growth factors receptor (NTRK2, Homo sapiens, UniProt Q16620)
Chain of UniProt Q16620 (whole entry, looked up): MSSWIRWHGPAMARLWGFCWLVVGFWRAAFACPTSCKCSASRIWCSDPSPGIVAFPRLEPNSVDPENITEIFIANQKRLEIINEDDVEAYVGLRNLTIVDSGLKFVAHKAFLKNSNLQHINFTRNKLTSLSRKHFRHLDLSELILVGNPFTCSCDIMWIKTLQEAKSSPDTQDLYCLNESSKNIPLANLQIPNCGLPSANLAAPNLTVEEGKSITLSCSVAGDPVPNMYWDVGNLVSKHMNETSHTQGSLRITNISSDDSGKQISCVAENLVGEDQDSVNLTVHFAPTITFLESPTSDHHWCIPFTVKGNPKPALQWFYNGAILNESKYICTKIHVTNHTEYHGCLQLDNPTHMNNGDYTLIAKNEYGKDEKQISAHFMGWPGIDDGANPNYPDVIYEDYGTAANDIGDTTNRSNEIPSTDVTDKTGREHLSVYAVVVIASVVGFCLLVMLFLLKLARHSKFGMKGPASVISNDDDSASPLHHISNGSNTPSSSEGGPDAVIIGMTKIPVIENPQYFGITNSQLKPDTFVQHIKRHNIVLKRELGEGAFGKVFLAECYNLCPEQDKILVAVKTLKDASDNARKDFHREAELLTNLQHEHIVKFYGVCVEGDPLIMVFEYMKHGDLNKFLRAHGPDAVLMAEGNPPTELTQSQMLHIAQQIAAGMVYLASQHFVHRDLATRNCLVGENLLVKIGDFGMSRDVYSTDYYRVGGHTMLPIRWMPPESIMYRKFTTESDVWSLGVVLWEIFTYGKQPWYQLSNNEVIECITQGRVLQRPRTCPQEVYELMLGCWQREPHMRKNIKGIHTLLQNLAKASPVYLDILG
| SMILES | remaining activity |
| --- | --- |
| CC(C)c1nn(-c2c(Cl)cccc2Cl)c2nc(Cc3ccc(OCCO)cc3)[nH]c(=O)c12 | 101% |
| COc1cc2ncnc(Nc3ccc(OCc4ccccc4)cc3)c2cc1OC | 92.5% |
| Cn1cc(/C=C2\C(=O)Nc3ccc(S(N)(=O)=O)cc32)c2ccccc21 | 4.83% |
| CCOc1cc2ncnc(Nc3cccc(Br)c3)c2cc1OCC | 105% |
| O=C1NC(=O)/C(=C/c2ccc3nccnc3c2)S1 | 90.7% |
| COc1ccc(Cl)cc1NC(=O)Nc1cc(C)nc2ccccc12 | 94.6% |
| COc1cc2ncnc(N3CCN(C(=O)Nc4ccc(Oc5ccccc5)cc4)CC3)c2cc1OC | 121% |
| Cc1nc(Nc2ncc(C(=O)Nc3c(C)cccc3Cl)s2)cc(N2CCN(CCO)CC2)n1 | 96.4% |
| CS(=O)(=O)CCNCc1ccc(-c2ccc3ncnc(Nc4ccc(OCc5cccc(F)c5)c(Cl)c4)c3c2)o1 | 98.8% |
| Cc1ccc(NC(=O)c2ccc(CN3CCN(C)CC3)cc2)cc1Nc1nccc(-c2cccnc2)n1 | 95.8% |
| CC(=O)O/N=C1/C(c2c(O)[nH]c3cc(Br)ccc23)=Nc2ccccc21 | 38.4% |
| COc1cc2ncc(-c3ccccc3)nc2cc1OC | 99.5% |
| CC(C)[C@H](CO)Nc1nc(Nc2cccc(Cl)c2)c2ncn(C(C)C)c2n1 | 33.4% |
| Nc1[nH]nc2nnc(-c3c(-c4ccccc4)nn4ccccc34)cc12 | 89.7% |
| Cn1cnc2cc3c(Nc4cccc(Br)c4)ncnc3cc21 | 98.9% |
| O=c1cc(N2CCOCC2)oc2c1ccc1ccccc12 | 94% |
| CCN1/C(=C/C(C)=O)Sc2ccc(OC)cc21 | 104% |
| O=C(Nc1ccc(Cl)cc1)c1ccccc1NCc1ccncc1 | 102% |
| CCC(=O)Nc1ccc2ncnc(Nc3cccc(Br)c3)c2c1 | 77.1% |
| CN(C)CCCn1cc(C2=C(c3c[nH]c4ccccc34)C(=O)NC2=O)c2ccccc21 | 55.8% |
| COc1ccc(-c2cnc3c(-c4ccsc4)cnn3c2)cc1 | 82.9% |
| C[S+]([O-])c1ccc(-c2nc(-c3ccncc3)c(-c3ccc(F)cc3)[nH]2)cc1 (centres unmarked) | 104% |

Sample 2 — read-out: cell-free assay; method: competition with immobilised ligand; concentration: 1 µM
Structure (SMILES): C[C@H](c1ccc(F)cc1)N(Cc1cccc(C(=O)O)c1)C(=O)c1cnc2ccccc2c1
| target | remaining binding [%] |
| --- | --- |
| Maternal embryonic leucine zipper kinase (MELK, Homo sapiens, UniProt Q14680) | 100 |
| Mitogen-activated protein kinase kinase kinase 1 (MAP3K1, Homo sapiens, UniProt Q13233) | 100 |
| Epidermal growth factor receptor (EGFR, Homo sapiens, UniProt P00533, L858R) | 100 |
| Ephrin type-A receptor 8 (EPHA8, Homo sapiens, UniProt P29322) | 76 |
| Serine/threonine-protein kinase 16 (STK16, Homo sapiens, UniProt O75716) | 100 |
| Mitogen-activated protein kinase kinase kinase 15 (MAP3K15, Homo sapiens, UniProt Q6ZN16) | 100 |
| Receptor-type tyrosine-protein kinase FLT3, autoinhibited (FLT3, Homo sapiens, UniProt P36888) | 100 |
| LIM domain kinase 2 (LIMK2, Homo sapiens, UniProt P53671) | 100 |
| Epidermal growth factor receptor (EGFR, Homo sapiens, UniProt P00533, T790M) | 100 |

Sample 3 — action: inhibitor; concentration: 1 µM
SMILES: CC#CC(=O)N1CCC[C@H]1c1nc(-c2ccc(C(=O)Nc3ccccn3)cc2)c2c(N)nccn12
| target | test | inhibition [%] |
| --- | --- | --- |
| Ribosomal protein S6 kinase alpha-2, kinase domain 1 (RPS6KA2, Homo sapiens, UniProt Q15349) | – | 3 |
| Beta-adrenergic receptor kinase 1 (GRK2, Homo sapiens, UniProt P25098) | enzyme activity | 0 |
| Serine/threonine-protein kinase pim-3 (PIM3, Homo sapiens, UniProt Q86V86) | enzyme activity | 0 |
| Dual specificity protein kinase CLK4 (CLK4, Homo sapiens, UniProt Q9HAZ1) | enzyme activity | 13 |
| Serine/threonine-protein kinase 38 (STK38, Homo sapiens, UniProt Q15208) | enzyme activity | 4 |
| Ribosomal protein S6 kinase alpha-3, N-terminal kinase domain (RPS6KA3, Homo sapiens, UniProt P51812) | – | 35 |
| Cyclin-dependent kinase 7 (CDK7, Homo sapiens, UniProt P50613) | enzyme activity | 61 |
| Tyrosine-protein kinase ABL1, non-phosphorylated (ABL1, Homo sapiens, UniProt P00519, F317L) | enzyme activity | 12 |

Sample 4 — species: human; matrix: microsomes or S9; concentration: 2 µM; time: 0.5 h
| Structure (SMILES) | remaining compound [%] |
| --- | --- |
| Cc1cc(C)c(S(=O)(=O)N[C@H](CO)C(C)C)c(C)c1 | < 1 |
| CCOc1cc(=O)n2c(c1C(=O)N1CCOCC1)CCCCC2 | 92.8 |
| COC(=O)C1CCN(C(=O)c2ccccc2N(C)S(C)(=O)=O)CC1 | 46.9 |
| CC(C)C(=O)N1CCN(c2cnc(N)c(-c3nc4ccccc4o3)c2)CC1 | 67.1 |
| O=C(Cn1c(=O)n2nc(-c3cccnc3)nc2c2c3c(sc21)CCC3)NCc1ccco1 | 39.4 |
| CCOC(=O)C1CCN(C(=O)CCC(=O)N2CCCn3nc(-c4cn(C)c5ccccc45)cc32)CC1 | 0.76 |
| CC(C)n1c(CNC(=O)c2cc(-c3ccco3)n[nH]2)nc2ccccc21 | 78.3 |
| CN(C(=O)NCC(=O)NC1C2CC3CC1CC(C(N)=O)(C3)C2)c1c(Cl)cc(Cl)cc1Cl (centres unmarked) | 1.47 |
| O=C(NC1CCN(Cc2ccc3c(c2)OCO3)CC1)c1cc2ccc3ccccc3c2o1 | 30.8 |
| CN1O[C@H](COc2ccc(O/C(F)=C\c3ccccc3)cc2)C[C@@]1(Cn1cncn1)c1ccccc1 | 74.8 |
| O=C(Cn1c(=O)oc2ccccc21)N[C@@H]1CCN(c2cnccn2)C[C@H]1O | 22.2 |

Repeated from above (sample 2):
| target | remaining binding [%] |
| --- | --- |
| Maternal embryonic leucine zipper kinase (MELK, Homo sapiens, UniProt Q14680) | 100 |
| Mitogen-activated protein kinase kinase kinase 1 (MAP3K1, Homo sapiens, UniProt Q13233) | 100 |
| Epidermal growth factor receptor (EGFR, Homo sapiens, UniProt P00533, L858R) | 100 |
| Ephrin type-A receptor 8 (EPHA8, Homo sapiens, UniProt P29322) | 76 |
| Serine/threonine-protein kinase 16 (STK16, Homo sapiens, UniProt O75716) | 100 |
| Mitogen-activated protein kinase kinase kinase 15 (MAP3K15, Homo sapiens, UniProt Q6ZN16) | 100 |
| Receptor-type tyrosine-protein kinase FLT3, autoinhibited (FLT3, Homo sapiens, UniProt P36888) | 100 |
| LIM domain kinase 2 (LIMK2, Homo sapiens, UniProt P53671) | 100 |
